Measurements of several laboratories.
Each line is one published result; not all experiments were run side by side. ± gives the spread as reported.

SMILES | assay | test system | setting | how to read | measurement | result
Cc1ncsc1-c1ccc(CNC(=O)[C@@H]2C[C@@H](OC(=O)OCCSSCCn3cc(CCCC(=O)N[C@@H](Cc4ccc(O)cc4)C(=O)N[C@@H](CCCNC(=N)N)C(=O)N[C@@H](CCCNC(=N)N)C(=O)N[C@@H](CCCNC(=N)N)C(=O)N[C@@H](CCCNC(=N)N)C(=O)N[C@@H](CCCNC(=N)N)C(=O)N[C@@H](CCCNC(=N)N)C(=O)N[C@@H](CCCNC(=N)N)C(=O)N[C@@H](CCCNC(=N)N)C(=O)N[C@@H](CCCNC(=N)N)C(N)=O)nn3)CN2C(=O)[C@@H](NC(=O)COCCOCCOCCNC(=O)C[C@@H]2N=C(c3ccc(Cl)cc3)c3c(sc(C)c3C)-n3c(C)nnc32)C(C)(C)C)cc1 | UHPLC | PBS | 100 nM, 0.5 h, 37 °C, added: 5 mM glutathione | baseline: total peak area | remaining intact compound | 0%
CC(C)C[C@H](NC(=O)C[C@H](O)[C@H](CC(C)C)NC(=O)[C@H](Cc1c[nH]cn1)NC(=O)CNC(=O)[C@@H](NC(=O)[C@H](C)NC(=O)[C@H](Cc1c[nH]c2ccccc12)NC(=O)[C@H](CCC(N)=O)NC(=O)[C@@H](Cc1ccccc1)NC(=O)c1ccc(NC(=O)CNC(=O)CCC(C(=O)O)N2CCN(CC(=O)O)CCN(CC(=O)O)CC2)cc1)C(C)C)C(N)=O (stereo partly drawn) [copper-64 labelled] |  | mouse serum | 1 h, 37 °C |  | intact probe | > 90%
CSCC[C@H](NC(=O)[C@H](CC(C)C)NC(=O)[C@H](Cc1c[nH]cn1)NC(=O)CNC(=O)[C@@H](NC(=O)[C@H](C)NC(=O)[C@H](Cc1c[nH]c2ccccc12)NC(=O)[C@H](CCC(N)=O)NC(=O)CCCCCNC(=O)CNC(=O)CNC(=O)CNC(=O)CSC(C)=O)C(C)C)C(N)=O [technetium-99m labelled] |  | healthy Swiss mouse, large intestine, contents removed | intravenous, 18.5 MBq, 90 min |  | tissue uptake | 2 ± 1.21 %ID/g
N=C(N)NCCC[C@@H]1NC(=O)[C@H](CC(=O)O)NC(=O)[C@@H](Cc2ccccc2)NC(=O)[C@H](CCCCNC(=O)CCOCCOCCOCCOCCNC(=O)CC[C@H](NC(=O)CCOCCOCCOCCOCCNC(=O)CC[C@H](NC(=O)CN2CCN(CC(=O)O)CCN(CC(=O)O)CCN(CC(=O)O)CC2)C(=O)NCCOCCOCCOCCOCCC(=O)N[C@@H](CCC(=O)NCCOCCOCCOCCOCCC(=O)NCCCC[C@@H]2NC(=O)CNC(=O)[C@H](CCCNC(=N)N)NC(=O)[C@H](CC(=O)O)NC(=O)[C@@H](Cc3ccccc3)NC2=O)C(=O)NCCOCCOCCOCCOCCC(=O)NCCCC[C@@H]2NC(=O)CNC(=O)[C@H](CCCNC(=N)N)NC(=O)[C@H](CC(=O)O)NC(=O)[C@@H](Cc3ccccc3)NC2=O)C(=O)NCCOCCOCCOCCOCCC(=O)NCCCC[C@@H]2NC(=O)CNC(=O)[C@H](CCCNC(=N)N)NC(=O)[C@H](CC(=O)O)NC(=O)[C@@H](Cc3ccccc3)NC2=O)NC(=O)CNC1=O [indium-111 labelled] |  | octanol/water |  |  | log P | -3.61 ± 0.07
CCCC[C@H]1C(=O)NCC(=O)N[C@@H](CC(=O)O)C(=O)N[C@@H](C(C)C)C(=O)N(C)[C@@H](Cc2ccccc2)C(=O)N[C@@H](Cc2ccc(O)cc2)C(=O)N(C)CC(=O)N[C@@H](Cc2c[nH]c3ccccc23)C(=O)N[C@@H](Cc2ccc(O)cc2)C(=O)N[C@@H](CC(C)C)C(=O)N[C@H](C(=O)NCC(=O)N[C@@H](CCCCNC(=O)CN2CCN(CC(=O)O)CCN(CC(=O)O)CCN(CC(=O)O)CC2)C(N)=O)CSCC(=O)N[C@@H](Cc2ccccc2)C(=O)N(C)[C@@H](Cc2ccccc2)C(=O)N1C [gallium-68 labelled] |  | human serum | concentration not given, 90 min, 37 °C |  | protein-bound radioactivity | > 50%
N=C(N)NCCC[C@@H]1NC(=O)[C@H](CCCCNC(=O)CC[C@H](NC(=O)CCOCCOCCOCCOCCNC(=O)CN2CCN(CC(=O)O)CCN(CC(=O)O)CCN(CC(=O)O)CC2)C(=O)NCCCC[C@@H]2NC(=O)[C@@H](Cc3ccccc3)NC(=O)[C@H](CC(=O)O)NC(=O)CNC(=O)[C@H](CCCNC(=N)N)NC2=O)NC(=O)[C@@H](Cc2ccccc2)NC(=O)[C@H](CC(=O)O)NC(=O)CNC1=O [indium-111 labelled] |  | female athymic nude mice, kidney | intravenous, 3 µCi, 1 h, U-87 MG glioma xenograft |  | tissue uptake | 4.45 ± 0.21 %ID/g
CCCC[C@H](NC(=O)CCCCCCCNC(=O)c1ccc(NN)nc1)C(=O)N[C@H]1CC(=O)NCCCC[C@@H](C(N)=O)NC(=O)[C@H](Cc2c[nH]c3ccccc23)NC(=O)[C@H](CCCNC(=N)N)NC(=O)[C@@H](Cc2ccccc2)NC(=O)[C@H](Cc2c[nH]cn2)NC1=O [technetium-99m labelled] |  | C57 mouse, B16/F1 melanoma, intestines | intravenous, 0.037 MBq, 24 h |  | tissue uptake | 0.32 ± 0.09 %ID
CC(C)C[C@@H]1NC(=O)[C@H](C(C)C)NC(=O)[C@H](CO)NC(=O)CNC(=O)CNC(=O)[C@H](CCCNC(=N)N)NC(=O)[C@@H]2CCCN2C(=O)[C@@H](NC(=O)CC[C@H](NC(=O)c2ccc(N(C)Cc3cnc4nc(N)nc(N)c4n3)cc2)C(=O)O)C(C)(C)SSC[C@@H](C(=O)O)NC(=O)CNC(=O)[C@H]([C@@H](C)O)NC(=O)[C@H](C(C)C)NC1=O |  | rat plasma | 1 µM, 37 °C |  | half-life | 44 min
N=C(N)NCCC[C@@H]1NC(=O)[C@H](CCCCNC(=O)CC[C@H](NC(=O)CCOCCOCCOCCOCCNC(=O)CC[C@H](NC(=O)CN2CCN(CC(=O)O)CCN(CC(=O)O)CCN(CC(=O)O)CC2)C(=O)NCCOCCOCCOCCOCCC(=O)N[C@@H](CCC(=O)NCCCC[C@@H]2NC(=O)[C@@H](Cc3ccccc3)NC(=O)[C@H](CC(=O)O)NC(=O)CNC(=O)[C@H](CCCNC(=N)N)NC2=O)C(=O)NCCCC[C@@H]2NC(=O)[C@@H](Cc3ccccc3)NC(=O)[C@H](CC(=O)O)NC(=O)CNC(=O)[C@H](CCCNC(=N)N)NC2=O)C(=O)NCCCC[C@@H]2NC(=O)[C@@H](Cc3ccccc3)NC(=O)[C@H](CC(=O)O)NC(=O)CNC(=O)[C@H](CCCNC(=N)N)NC2=O)NC(=O)[C@@H](Cc2ccccc2)NC(=O)[C@H](CC(=O)O)NC(=O)CNC1=O [indium-111 labelled] |  | female athymic nude mice, lungs | intravenous, 3 µCi, 4 h, U-87 MG glioma xenograft |  | tissue uptake | 1.93 ± 0.77 %ID/g
CSCC[C@H](NC(=O)[C@H](CC(C)C)NC(=O)[C@H](Cc1c[nH]cn1)NC(=O)CNC(=O)[C@@H](NC(=O)[C@H](C)NC(=O)[C@H](Cc1c[nH]c2ccccc12)NC(=O)[C@H](CCC(N)=O)NC(=O)CCCCCNC(=O)CN1CCN(CC(=O)O)CCN(CC(=O)O)CC1)C(C)C)C(N)=O [gallium-68 labelled] | radio-HPLC | fetal bovine serum | 2 h, 37 °C |  | remaining parent | 89.2%
N=C(N)NCCC[C@@H]1NC(=O)[C@H](CCCCNC(=O)CCOCCOCCOCCOCCNC(=O)CC[C@H](NC(=O)CCOCCOCCOCCOCCNC(=O)CC[C@H](NC(=O)CN2CCN(CC(=O)O)CCN(CC(=O)O)CCN(CC(=O)O)CC2)C(=O)NCCOCCOCCOCCOCCC(=O)N[C@@H](CCC(=O)NCCOCCOCCOCCOCCC(=O)NCCCC[C@@H]2NC(=O)[C@@H](Cc3ccccc3)NC(=O)[C@H](CC(=O)O)NC(=O)CNC(=O)[C@H](CCCNC(=N)N)NC2=O)C(=O)NCCOCCOCCOCCOCCC(=O)NCCCC[C@@H]2NC(=O)[C@@H](Cc3ccccc3)NC(=O)[C@H](CC(=O)O)NC(=O)CNC(=O)[C@H](CCCNC(=N)N)NC2=O)C(=O)NCCOCCOCCOCCOCCC(=O)NCCCC[C@@H]2NC(=O)[C@@H](Cc3ccccc3)NC(=O)[C@H](CC(=O)O)NC(=O)CNC(=O)[C@H](CCCNC(=N)N)NC2=O)NC(=O)[C@@H](Cc2ccccc2)NC(=O)[C@H](CC(=O)O)NC(=O)CNC1=O [indium-111 labelled] |  | athymic nude mice U-87 MG xenograft, U-87 MG tumour | intravenous, 1 h, added: RGD2 about 14 mg/kg co-injected |  | tissue uptake | 0.7 %ID/g
N=C(N)NCCC[C@@H]1NC(=O)[C@H](CCCCNC(=O)CNC(=O)CNC(=O)CNC(=O)CC[C@H](NC(=O)c2ccc(NN=Cc3ccccc3S(=O)(=O)O)nc2)C(=O)NCC(=O)NCC(=O)NCC(=O)NCCCC[C@@H]2NC(=O)[C@@H](Cc3ccccc3)NC(=O)[C@H](CC(=O)O)NC(=O)CNC(=O)[C@H](CCCNC(=N)N)NC2=O)NC(=O)[C@@H](Cc2ccccc2)NC(=O)[C@H](CC(=O)O)NC(=O)CNC1=O [technetium-99m labelled] |  | athymic nu/nu mouse, female, MDA-MB-435 xenograft, kidney | intravenous, 120 min |  | tissue uptake | 10.7 ± 2.43 %ID/g
N=C(N)NCCC[C@@H]1NC(=O)[C@H](CCCCNC(=O)CCOCCOCCOCCOCCNC(=O)CN2CCN(CC(=O)O)CCN(CC(=O)O)CCN(CC(=O)O)CC2)NC(=O)[C@@H](Cc2ccccc2)NC(=O)[C@H](CC(=O)O)NC(=O)CNC1=O [indium-111 labelled] |  | athymic nude mice, female, U-87 MG glioma xenograft, tumour and blood | intravenous, 0.5 h | baseline: tumour over blood | tumour to tissue ratio | 0.52 ± 0.1
CCCC[C@H](NC(=O)CNC(=O)CNC(=O)CNC(=O)c1ccc(NN)nc1)C(=O)N[C@H]1CC(=O)NCCCC[C@@H](C(N)=O)NC(=O)[C@H](Cc2c[nH]c3ccccc23)NC(=O)[C@H](CCCNC(=N)N)NC(=O)[C@@H](Cc2ccccc2)NC(=O)[C@H](Cc2c[nH]cn2)NC1=O [technetium-99m labelled] |  | C57 mouse, B16/F1 melanoma | 2 h | baseline: tumour over lung | uptake ratio | 54.4
CCCC[C@H](NC(=O)CNC(=O)CNC(=O)c1ccc(NN)nc1)C(=O)N[C@H]1CC(=O)NCCCC[C@@H](C(N)=O)NC(=O)[C@H](Cc2c[nH]c3ccccc23)NC(=O)[C@H](CCCNC(=N)N)NC(=O)[C@@H](Cc2ccccc2)NC(=O)[C@H](Cc2c[nH]cn2)NC1=O [technetium-99m labelled] |  | C57 mouse, B16/F1 melanoma, muscle | 2 h, added: NDP-MSH 6.07 nmol blockade |  | uptake | 0.03 ± 0.02 %ID/g

Some of these lines once more:
SMILES | assay | test system | setting | how to read | measurement | result
CCCC[C@H](NC(=O)CCCCCCCNC(=O)c1ccc(NN)nc1)C(=O)N[C@H]1CC(=O)NCCCC[C@@H](C(N)=O)NC(=O)[C@H](Cc2c[nH]c3ccccc23)NC(=O)[C@H](CCCNC(=N)N)NC(=O)[C@@H](Cc2ccccc2)NC(=O)[C@H](Cc2c[nH]cn2)NC1=O [technetium-99m labelled] |  | C57 mouse, B16/F1 melanoma, intestines | intravenous, 0.037 MBq, 24 h |  | tissue uptake | 0.32 ± 0.09 %ID
CC(C)C[C@@H]1NC(=O)[C@H](C(C)C)NC(=O)[C@H](CO)NC(=O)CNC(=O)CNC(=O)[C@H](CCCNC(=N)N)NC(=O)[C@@H]2CCCN2C(=O)[C@@H](NC(=O)CC[C@H](NC(=O)c2ccc(N(C)Cc3cnc4nc(N)nc(N)c4n3)cc2)C(=O)O)C(C)(C)SSC[C@@H](C(=O)O)NC(=O)CNC(=O)[C@H]([C@@H](C)O)NC(=O)[C@H](C(C)C)NC1=O |  | rat plasma | 1 µM, 37 °C |  | half-life | 44 min
